Measured values of several laboratories.
Each numbered part is a random draw from the data of one study; scales do not carry over between parts. Changes are numbered by the printed parent chain.

Series 1 — technique: DHFR PCA, deep sequencing; matrix: yeast; added: (+)-ABA 0.032 µM; reference: wild-type fitted maximum; direction: higher = stronger binding
Target: ABI1, truncated, D143A, DHFR fusion (Arabidopsis thaliana)
Setting: methotrexate growth selection, single substitutions
Starting sequence: PYL1, truncated, DHFR fusion (Arabidopsis thaliana); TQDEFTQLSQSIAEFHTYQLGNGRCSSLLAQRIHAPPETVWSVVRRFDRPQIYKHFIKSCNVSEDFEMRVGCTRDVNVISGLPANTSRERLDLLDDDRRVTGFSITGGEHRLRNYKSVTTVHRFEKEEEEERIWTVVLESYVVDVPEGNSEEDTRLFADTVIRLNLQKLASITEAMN
Change | relative binding score [%]
S171H | 22.4
V142K | -12
R111V | 12.7
D159E | 1.41
S42P | -6.8

Series 2 — target: CCNB2, cyclin fold, Cln2 fusion (human); technique: yeast growth competition, sequencing; matrix: yeast; setting: weak parent motif; reference: not given; direction: higher = stronger binding
Starting sequence: INSM1 docking peptide (human); PKAIRKLHFEDEV; partner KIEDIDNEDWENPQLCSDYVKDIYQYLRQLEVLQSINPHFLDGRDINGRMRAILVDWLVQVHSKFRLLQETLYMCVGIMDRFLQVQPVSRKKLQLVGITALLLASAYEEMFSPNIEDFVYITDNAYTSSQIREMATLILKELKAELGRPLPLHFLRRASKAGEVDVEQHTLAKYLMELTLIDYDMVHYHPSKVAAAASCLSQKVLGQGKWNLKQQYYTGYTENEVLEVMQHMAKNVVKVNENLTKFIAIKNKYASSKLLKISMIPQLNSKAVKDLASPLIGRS
Change | normalised enrichment score
PKAIRKVHFEDEV [L7V] | 0.468
PKAIRKLHFEDYV [E12Y] | -0.0525
PKAIRKLHFESEV [D11S] | 0.351
PEAIRKLHFEDEV [K2E] | 0.167
PKAIRKLHFEDRV [E12R] | 0.188

Series 3 — technique: RNA Bind-n-Seq; form: RNA; matrix: in vitro; tested at: not given; setting: RNA with constant flanks, ends assumed; reference: input RNA pool; direction: higher = stronger binding
Target: RING finger protein unkempt homolog, zinc fingers 1-6, GST-SBP tag (UNK, Homo sapiens, UniProt Q9C0B0, residues 30-357)
Shared flanks, not repeated: GGGAGUUCUACAGUCCGACGAUC … CAACAGAGGAUUGAGCAUCA
Target sequence (chain): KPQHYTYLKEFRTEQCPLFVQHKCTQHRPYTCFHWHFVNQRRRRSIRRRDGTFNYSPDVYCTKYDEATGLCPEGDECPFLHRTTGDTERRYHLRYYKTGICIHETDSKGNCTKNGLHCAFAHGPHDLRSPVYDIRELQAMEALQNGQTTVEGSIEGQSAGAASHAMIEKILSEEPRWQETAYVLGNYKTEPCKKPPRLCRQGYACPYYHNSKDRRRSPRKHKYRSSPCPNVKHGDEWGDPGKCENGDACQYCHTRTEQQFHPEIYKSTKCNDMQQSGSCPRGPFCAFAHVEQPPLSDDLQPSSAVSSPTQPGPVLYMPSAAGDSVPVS
Strand | bound/input enrichment [ratio]
GUUAUUGAAAAACUCUUGACCUCUUACGGAUUCAUUCAGUGUUCAGAACGGCAAGCCCGACUUUUCUUCCACUGUUCACAAUAUAAUGGCAACCUCCAAGACUUAAAAGUAGGAGAUGAU | 0.254
ACUCCUGUUACCUUGAAAAAUAAAAAUGUUAACAGGAAUGCAGUGUGCUCAUUAUCCCUAACCCGCAAAUCCUACUUUAUGCAAAGCUGUUCUCUUGUUCUGCUGUUUUAAAUGUCCAUG | 0.203
GAUUCCAAGCUAACAAGACUACUACAGGAUUCCCUCGGGGGUAAUAGCCAAACAAUCAUGACCGCAUGUGUCAGCCCUUCAGACAGAGACUUUAUGGAAACGUUAAACACCCUGAAAUAC | 0.331
AUGAAAAGACUAAUUGGAUGAAGACUCUCUCUCUGUAAUGAGUUUGUUGUUAAAUAUACAGCCGUUAUGGAAUGAAAAUGAAUACUUUGUCCCAGGCUCCUGGAUACGUUGCAUUUGGCU | 0.0683
UACUACUUAUCUGUGUUUCUGGAGCUCUCAGCUGGCUUGCCUGAAACUUCUAAAUAUGAAUAUCGUGCCGAGAUGGUUCACCAGUCCUGUAAUGAUCCUACAAAAAAUAUCAUUCGAGAA | 0.273
ACUCCAAGACUGUGUUCGGGAGUCCUUGGAACUGUGGUCCAUGGUAAAGUUUUACAGGAGUCCGGACCUGGAAAUGUACAGAAAGAAGUCUCAUCUUCCUUUGACCACGUUAUCAAGGAG | 0.0861
GAUUAUGUGCCUGCUUUAAAAGGUUUGGGUGAAUGCCAUCUUAUGAUGGCAAAAGCAGCUCCCGUUGAUUAUCUUGAUGGAAAAGCCGUAGACUACAUAGAAAAAGCACUGGAAUAUUUU | 1.41
UGUGGUGGUAAUGUAAUAUUCAGAGUAUACUUUAAUGUUAGUGAGAAAUUCAGUUCUGCACCGCAGGCUUUUGCUAACUUACCUCUUGAAAGUUUUGUGUCUCUGGGCAGUGGUGGCGAA | 1.48

Other studies, line by line
Substance | target | test | test system | setting | scale | measurement | result
PhoQ, residues 284 288 289 292 302 303 SSTMSV | PhoP, residues 12 14 15 18 19 NMSSL (Escherichia coli, UniProt P23836) | Sort-seq, measured: YFP reporter | E. coli | PhoQ-PhoP variant library, added: 10 µM Mg2+ | reference: high Mg2+ state, higher = stronger signaling | fold induction | 14.9

For quick reference, copied from above (series 2):
Change | normalised enrichment score
PKAIRKLHFEDYV [E12Y] | -0.0525
PKAIRKLHFESEV [D11S] | 0.351
PEAIRKLHFEDEV [K2E] | 0.167
